Experimental data from different studies.
Numbered parts are unrelated; each lists some results of a single study. Positions count from the first letter of the parent shown.

Block 1 — method: universal PBM; form: double-stranded DNA, one strand shown; sample: in vitro; tested at: not given; direction: higher = stronger binding
Target: Sal-like protein 4, full length isoform B (SALL4, Homo sapiens, UniProt Q9UJQ4-2, residues 1-616)
Setting: 8-mer, flanks averaged, mean of replicates
Target sequence (chain): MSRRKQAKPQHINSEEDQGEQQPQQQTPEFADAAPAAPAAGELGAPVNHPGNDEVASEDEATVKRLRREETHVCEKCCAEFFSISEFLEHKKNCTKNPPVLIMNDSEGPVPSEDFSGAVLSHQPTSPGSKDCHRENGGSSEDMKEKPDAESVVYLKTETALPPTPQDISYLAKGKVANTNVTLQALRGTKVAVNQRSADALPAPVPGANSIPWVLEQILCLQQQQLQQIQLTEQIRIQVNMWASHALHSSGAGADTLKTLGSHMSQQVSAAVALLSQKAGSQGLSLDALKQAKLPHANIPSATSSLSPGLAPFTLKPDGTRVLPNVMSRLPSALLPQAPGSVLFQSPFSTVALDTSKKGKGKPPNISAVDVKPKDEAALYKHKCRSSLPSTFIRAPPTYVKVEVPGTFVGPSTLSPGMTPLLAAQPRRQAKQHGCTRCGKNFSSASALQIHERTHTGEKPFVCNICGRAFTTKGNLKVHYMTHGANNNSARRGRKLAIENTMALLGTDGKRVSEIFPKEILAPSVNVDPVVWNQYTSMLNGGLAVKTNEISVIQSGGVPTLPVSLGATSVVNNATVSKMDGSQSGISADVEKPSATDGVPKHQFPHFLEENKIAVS
Strand	E-score
AGGCACCC	-0.253
AACCTCAG	-0.137
CAGCATGG	-0.209
CACAGACG	-0.116
CATCCCAG	-0.0824
ATGTCGGG	-0.0901
GTTGGAAA	0.035

Block 2 — target: CCNA1, cyclin fold, Cln2 fusion (human); method: yeast growth competition, sequencing; sample: yeast; setting: weak parent motif; relative to: not given; direction: higher = stronger binding
Parent: ORC1 docking peptide (human); PRARKRLELGNLG
Change	normalised enrichment score
PRARKRLELGNLE [G13E]	0.569
PRARKRRELGNLG [L7R]	0.496
PRARKRLEAGNLG [L9A]	0.485
PRARMRLELGNLG [K5M]	0.346
PRARKTLELGNLG [R6T]	0.477

Block 3 — method: protein-binding microarray; form: double-stranded DNA, one strand shown; sample: in vitro; tested at: 250 nM; setting: 60-bp whole probe; with: salmon DNA 0.4 mg/ml; relative to: random background probes; direction: higher = stronger binding; all sequences stand within: GCCTAGCAC … GTCTTGATTCGCTTGACGCTGCTG
Target: Interferon regulatory factor 7, full length, phosphomimetic (IRF7, Homo sapiens, UniProt Q92985, residues 1-503, S101K/S471D/S472D/S475D/S476D/S477D/S483D/S484D/S487D)
Target sequence (chain): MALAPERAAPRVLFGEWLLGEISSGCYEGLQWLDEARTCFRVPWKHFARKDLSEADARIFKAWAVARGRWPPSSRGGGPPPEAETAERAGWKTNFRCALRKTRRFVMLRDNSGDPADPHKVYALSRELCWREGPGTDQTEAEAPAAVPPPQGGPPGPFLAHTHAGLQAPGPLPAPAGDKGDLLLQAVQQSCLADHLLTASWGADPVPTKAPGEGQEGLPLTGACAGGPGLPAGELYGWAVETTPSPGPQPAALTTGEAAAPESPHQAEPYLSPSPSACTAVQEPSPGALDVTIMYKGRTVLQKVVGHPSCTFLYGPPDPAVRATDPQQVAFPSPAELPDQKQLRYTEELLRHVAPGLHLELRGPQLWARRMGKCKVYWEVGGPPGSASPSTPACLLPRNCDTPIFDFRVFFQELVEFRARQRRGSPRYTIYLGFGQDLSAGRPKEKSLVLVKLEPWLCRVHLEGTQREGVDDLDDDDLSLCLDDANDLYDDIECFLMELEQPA
Strand	log fluorescence
CTCTTTCTTTGCTTCACCCTGTGCTAG	1.94 z-score
TACGGTTTCCTTTTCCTGACGTGCTAG	6.96 z-score
GACGGTATCCTACTGCTTACGTGCTAG	-0.134 z-score
GACGGACGGGGGACTGGGGACGTGCTA	1.21 z-score
GGTATTCGGAACTTTTAGCTGTGCTAG	0.322 z-score
GACAATTTGGAAACCGAGTGGTGCTAG	0.163 z-score

Other studies, line by line
Molecule	target	assay	system	setting	scale	quantity	value
PhoQ, residues 284 288 289 292 302 303 NSMLDC	PhoP, residues 12 14 15 18 19 LYFRQ (Escherichia coli, UniProt P23836)	Sort-seq, measured: YFP reporter	E. coli	PhoQ-PhoP variant library, with: 10 µM Mg2+	relative to: high Mg2+ state, higher = stronger signaling	fold induction	14.7

Repeated from above (block 3):
Strand	log fluorescence
GACGGACGGGGGACTGGGGACGTGCTA	1.21 z-score
GACGGTATCCTACTGCTTACGTGCTAG	-0.134 z-score
